Assay results from different studies.
Protocols differ between the studies behind these lines.
Target: Tyrosine-protein phosphatase non-receptor type 1 (PTPN1, Homo sapiens, UniProt P18031)
One construct used (P18031 1-435): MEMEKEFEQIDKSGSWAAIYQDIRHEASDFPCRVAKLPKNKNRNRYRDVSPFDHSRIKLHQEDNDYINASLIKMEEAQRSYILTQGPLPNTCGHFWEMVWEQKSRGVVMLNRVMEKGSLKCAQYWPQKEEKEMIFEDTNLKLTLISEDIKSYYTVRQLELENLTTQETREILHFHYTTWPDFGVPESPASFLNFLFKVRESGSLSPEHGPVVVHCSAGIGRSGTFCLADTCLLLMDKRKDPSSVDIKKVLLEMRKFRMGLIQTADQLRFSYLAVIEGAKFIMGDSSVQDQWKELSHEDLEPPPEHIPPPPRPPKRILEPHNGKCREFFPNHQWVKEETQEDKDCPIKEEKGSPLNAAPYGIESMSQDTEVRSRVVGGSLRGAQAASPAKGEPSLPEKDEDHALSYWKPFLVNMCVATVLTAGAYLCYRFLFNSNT

CC(C)[C@H]1NC(=O)[C@H](CO)NC(=O)c2cc3cc(c2)C(=O)NC[C@H](NC(=O)[C@H](Cc2c[nH]cn2)NC(=O)[C@H](Cc2ccc(C(F)(F)P(=O)(O)O)cc2)NC(=O)[C@@H]2CCCN2C1=O)C(=O)N[C@@H](Cc1ccccc1)C(=O)N[C@@H](Cc1ccc2ccccc2c1)C(=O)N[C@@H](CCCNC(=N)N)C(=O)N[C@@H](CCCNC(=N)N)C(=O)N[C@@H](CCCNC(=N)N)C(=O)N[C@@H](CCCNC(=N)N)C(=O)N[C@H](C(=O)N[C@@H](CCCCN)C(N)=O)CNC3=O gave a Ki of 37 nM (enzyme activity, inhibitor, absorbance).
For C=CC1C(OC2OC(CO)C(O)C(O)C2O)OC=C2C(=O)OCCC21 (centres unmarked), the IC50 was greater than 100000 nM (enzyme activity, inhibitor, absorbance).
For Cc1ccccc1N1C(=O)/C(=C/c2ccc(OCc3cccc(C(=O)O)c3)cc2)C(=O)NC1=S, the IC50 was 1590 nM (enzyme activity, inhibitor).
The Kd of CC(=O)N[C@H]1CCCCn2cc3ccccc3c2SC[C@@H](C(N)=O)NC(=O)[C@H](Cc2ccc(O)cc2)NC(=O)[C@H](CCCNC(=N)N)NC(=O)[C@H](Cc2c[nH]c3ccccc23)NC(=O)[C@H](Cc2c[nH]cn2)NC(=O)[C@H](CC(C)C)NC(=O)[C@H](Cc2ccccc2)NC(=O)[C@H]([C@@H](C)O)NC1=O is reported as 1900 nM (binding, BLI).
The IC50 of CC(C)=CCC[C@](C)(O[C@@H]1O[C@H](CO[C@@H]2O[C@@H](CO)[C@H](O)[C@H]2O)[C@@H](O)[C@H](O)[C@H]1O)C1CC[C@]2(C)C1[C@H](O)CC1[C@@]3(C)CC[C@H](O[C@@H]4O[C@H](CO)[C@@H](O)[C@H](O)[C@H]4O)C(C)(C)C3CC[C@]12C (some centres unmarked) is reported as greater than 100000 nM (enzyme activity, inhibitor, absorbance; pH 7.4).
CC(C)=C/C=C/[C@@H](C)[C@H]1CC[C@@H]2[C@]1(C)CC[C@H]1[C@]23C=C[C@]2(C[C@@H](O)CC[C@]12C)OO3 has an IC50 of 570 nM (enzyme activity, inhibitor, absorbance).
CC(C)=CCC[C@](C)(O[C@@H]1O[C@H](CO[C@@H]2O[C@H](CO)[C@@H](O)[C@H](O)[C@H]2O)[C@@H](O)[C@H](O)[C@H]1O)C1CC[C@]2(C)C1[C@H](O)CC1[C@@]3(C)CC[C@H](O[C@@H]4O[C@H](CO)[C@@H](O)[C@H](O)[C@H]4O[C@@H]4O[C@H](CO)[C@@H](O)[C@H](O)[C@H]4O[C@@H]4OC[C@@H](O)[C@H](O)[C@H]4O)C(C)(C)C3CC[C@]12C (some centres unmarked) has an IC50 of greater than 100000 nM (enzyme activity, inhibitor, absorbance; pH 7.4).
For NC1=NN=Cc2ccccc2[O][V](=[O])[O]1.c1cnc2c(c1)ccc1cccnc12, the IC50 was 270 nM (enzyme activity, inhibitor).

For quick reference, copied from above:
For C=CC1C(OC2OC(CO)C(O)C(O)C2O)OC=C2C(=O)OCCC21 (centres unmarked), the IC50 was greater than 100000 nM (enzyme activity, inhibitor, absorbance).
